Assay results gathered from unrelated publications.
Compare with care: the assays were run in different laboratories.
PRMT5: Protein arginine N-methyltransferase 5 (PRMT5, Homo sapiens, UniProt O14744)
UniProt O14744, sequence (whole entry, looked up): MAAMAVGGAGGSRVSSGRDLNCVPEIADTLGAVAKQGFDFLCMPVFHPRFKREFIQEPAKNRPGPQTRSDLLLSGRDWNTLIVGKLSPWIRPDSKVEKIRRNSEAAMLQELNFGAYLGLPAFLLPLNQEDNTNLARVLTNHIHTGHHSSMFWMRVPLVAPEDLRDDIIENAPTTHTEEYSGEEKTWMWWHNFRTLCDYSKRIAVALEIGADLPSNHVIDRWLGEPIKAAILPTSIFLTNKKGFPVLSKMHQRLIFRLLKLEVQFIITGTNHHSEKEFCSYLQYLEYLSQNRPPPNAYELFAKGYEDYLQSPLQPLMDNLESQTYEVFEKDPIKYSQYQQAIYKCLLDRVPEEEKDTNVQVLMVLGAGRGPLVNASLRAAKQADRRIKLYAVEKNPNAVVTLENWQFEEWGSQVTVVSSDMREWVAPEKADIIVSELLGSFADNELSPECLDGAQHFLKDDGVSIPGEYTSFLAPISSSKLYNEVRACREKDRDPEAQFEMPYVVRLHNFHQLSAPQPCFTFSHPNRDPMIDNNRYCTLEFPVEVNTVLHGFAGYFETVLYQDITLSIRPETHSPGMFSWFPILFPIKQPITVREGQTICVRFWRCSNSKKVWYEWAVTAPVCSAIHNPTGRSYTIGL
MAPK8: Mitogen-activated protein kinase 8 (MAPK8, Homo sapiens, UniProt P45983)
UniProt P45983, sequence (whole entry, looked up): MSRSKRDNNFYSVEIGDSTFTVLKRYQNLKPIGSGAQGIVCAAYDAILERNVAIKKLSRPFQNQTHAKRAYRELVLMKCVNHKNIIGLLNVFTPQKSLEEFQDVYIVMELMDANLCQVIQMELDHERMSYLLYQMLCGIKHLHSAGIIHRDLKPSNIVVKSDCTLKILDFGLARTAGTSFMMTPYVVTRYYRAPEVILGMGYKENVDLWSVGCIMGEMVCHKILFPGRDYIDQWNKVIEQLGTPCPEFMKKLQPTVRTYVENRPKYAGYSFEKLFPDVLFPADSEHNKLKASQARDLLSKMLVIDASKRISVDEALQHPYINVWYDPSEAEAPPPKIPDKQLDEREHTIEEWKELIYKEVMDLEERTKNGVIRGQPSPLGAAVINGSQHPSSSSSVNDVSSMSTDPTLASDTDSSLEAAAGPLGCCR
IL1RL2: Interleukin-1 receptor-like 2 (IL1RL2, Homo sapiens, UniProt Q9HB29)
UniProt Q9HB29, sequence (whole entry, looked up): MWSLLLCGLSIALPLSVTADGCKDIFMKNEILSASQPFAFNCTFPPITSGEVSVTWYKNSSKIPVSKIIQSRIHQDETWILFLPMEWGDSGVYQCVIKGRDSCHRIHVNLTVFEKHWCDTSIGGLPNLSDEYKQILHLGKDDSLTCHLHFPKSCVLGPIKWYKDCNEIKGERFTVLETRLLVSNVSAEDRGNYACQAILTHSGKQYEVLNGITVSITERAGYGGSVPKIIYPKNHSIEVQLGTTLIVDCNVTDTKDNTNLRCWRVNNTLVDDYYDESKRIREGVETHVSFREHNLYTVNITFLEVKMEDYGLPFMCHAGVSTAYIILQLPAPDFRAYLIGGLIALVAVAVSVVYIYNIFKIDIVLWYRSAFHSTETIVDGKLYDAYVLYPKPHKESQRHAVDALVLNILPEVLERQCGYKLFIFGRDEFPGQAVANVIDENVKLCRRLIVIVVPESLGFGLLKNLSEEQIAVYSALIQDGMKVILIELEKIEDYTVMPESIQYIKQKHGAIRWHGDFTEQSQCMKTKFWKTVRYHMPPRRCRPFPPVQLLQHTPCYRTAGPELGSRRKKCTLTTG
UniProt O75417, sequence (whole entry, looked up): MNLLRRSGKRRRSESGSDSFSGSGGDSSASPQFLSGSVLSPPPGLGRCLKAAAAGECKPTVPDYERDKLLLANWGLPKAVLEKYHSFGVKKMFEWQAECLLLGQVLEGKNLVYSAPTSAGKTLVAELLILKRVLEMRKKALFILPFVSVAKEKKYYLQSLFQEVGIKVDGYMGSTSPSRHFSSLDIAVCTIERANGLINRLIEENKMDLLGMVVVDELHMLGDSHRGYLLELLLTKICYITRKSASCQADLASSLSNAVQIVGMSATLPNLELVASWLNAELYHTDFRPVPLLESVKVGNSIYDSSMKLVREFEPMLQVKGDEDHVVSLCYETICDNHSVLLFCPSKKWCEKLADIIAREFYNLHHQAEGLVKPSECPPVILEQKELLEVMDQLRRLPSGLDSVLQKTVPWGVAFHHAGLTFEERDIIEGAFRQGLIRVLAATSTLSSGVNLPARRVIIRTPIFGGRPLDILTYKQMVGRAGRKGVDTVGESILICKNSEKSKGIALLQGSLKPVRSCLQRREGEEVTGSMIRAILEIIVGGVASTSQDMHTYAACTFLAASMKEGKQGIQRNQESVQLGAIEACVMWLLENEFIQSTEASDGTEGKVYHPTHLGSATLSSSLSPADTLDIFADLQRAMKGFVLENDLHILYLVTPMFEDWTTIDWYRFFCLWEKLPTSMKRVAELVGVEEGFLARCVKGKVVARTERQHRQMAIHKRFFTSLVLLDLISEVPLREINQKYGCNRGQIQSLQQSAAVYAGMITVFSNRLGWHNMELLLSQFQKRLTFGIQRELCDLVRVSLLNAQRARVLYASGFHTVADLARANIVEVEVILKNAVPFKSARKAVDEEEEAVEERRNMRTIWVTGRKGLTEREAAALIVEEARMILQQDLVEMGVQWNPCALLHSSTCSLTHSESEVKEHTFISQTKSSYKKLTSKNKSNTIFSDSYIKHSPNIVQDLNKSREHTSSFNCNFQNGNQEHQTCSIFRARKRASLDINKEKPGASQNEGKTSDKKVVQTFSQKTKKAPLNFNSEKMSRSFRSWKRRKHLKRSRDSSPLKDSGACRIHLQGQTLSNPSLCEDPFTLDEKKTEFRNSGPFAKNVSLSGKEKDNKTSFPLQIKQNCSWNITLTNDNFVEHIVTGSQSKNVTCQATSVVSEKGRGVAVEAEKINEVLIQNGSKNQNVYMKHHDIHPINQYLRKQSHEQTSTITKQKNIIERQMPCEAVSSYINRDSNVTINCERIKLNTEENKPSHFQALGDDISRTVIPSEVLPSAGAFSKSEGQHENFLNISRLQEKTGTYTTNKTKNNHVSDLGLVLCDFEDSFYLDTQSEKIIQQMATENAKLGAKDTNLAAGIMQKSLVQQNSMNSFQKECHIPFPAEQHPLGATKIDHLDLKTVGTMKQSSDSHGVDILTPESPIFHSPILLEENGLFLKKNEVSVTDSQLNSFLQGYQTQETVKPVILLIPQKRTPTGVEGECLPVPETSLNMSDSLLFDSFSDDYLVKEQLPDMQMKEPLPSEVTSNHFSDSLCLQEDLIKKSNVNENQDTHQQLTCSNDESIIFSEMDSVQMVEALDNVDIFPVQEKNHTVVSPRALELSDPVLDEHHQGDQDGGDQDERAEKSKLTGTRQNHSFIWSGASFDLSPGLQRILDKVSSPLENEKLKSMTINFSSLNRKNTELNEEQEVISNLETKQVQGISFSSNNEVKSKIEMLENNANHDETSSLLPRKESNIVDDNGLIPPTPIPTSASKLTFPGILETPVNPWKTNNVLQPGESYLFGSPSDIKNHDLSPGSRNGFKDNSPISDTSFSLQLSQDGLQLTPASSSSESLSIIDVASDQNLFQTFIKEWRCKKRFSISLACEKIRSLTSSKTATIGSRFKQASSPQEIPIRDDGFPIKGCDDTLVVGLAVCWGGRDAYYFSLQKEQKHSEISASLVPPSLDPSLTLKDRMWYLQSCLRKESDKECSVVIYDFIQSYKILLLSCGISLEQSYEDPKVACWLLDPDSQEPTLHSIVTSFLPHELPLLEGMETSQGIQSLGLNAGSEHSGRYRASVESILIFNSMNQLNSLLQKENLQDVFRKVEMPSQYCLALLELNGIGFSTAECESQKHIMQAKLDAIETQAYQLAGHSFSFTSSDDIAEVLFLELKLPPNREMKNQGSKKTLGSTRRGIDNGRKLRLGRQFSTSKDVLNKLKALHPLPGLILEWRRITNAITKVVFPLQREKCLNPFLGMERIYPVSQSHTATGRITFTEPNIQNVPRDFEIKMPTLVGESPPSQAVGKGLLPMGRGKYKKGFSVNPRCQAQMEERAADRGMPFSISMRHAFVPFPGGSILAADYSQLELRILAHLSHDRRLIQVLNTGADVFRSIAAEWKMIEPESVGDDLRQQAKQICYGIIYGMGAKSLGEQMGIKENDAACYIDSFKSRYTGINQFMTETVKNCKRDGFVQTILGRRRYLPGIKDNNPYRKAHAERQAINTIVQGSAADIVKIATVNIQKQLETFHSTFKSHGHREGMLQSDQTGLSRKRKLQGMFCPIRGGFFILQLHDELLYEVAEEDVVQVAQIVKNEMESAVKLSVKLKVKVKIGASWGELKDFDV
UniProt Q92769, sequence (whole entry, looked up): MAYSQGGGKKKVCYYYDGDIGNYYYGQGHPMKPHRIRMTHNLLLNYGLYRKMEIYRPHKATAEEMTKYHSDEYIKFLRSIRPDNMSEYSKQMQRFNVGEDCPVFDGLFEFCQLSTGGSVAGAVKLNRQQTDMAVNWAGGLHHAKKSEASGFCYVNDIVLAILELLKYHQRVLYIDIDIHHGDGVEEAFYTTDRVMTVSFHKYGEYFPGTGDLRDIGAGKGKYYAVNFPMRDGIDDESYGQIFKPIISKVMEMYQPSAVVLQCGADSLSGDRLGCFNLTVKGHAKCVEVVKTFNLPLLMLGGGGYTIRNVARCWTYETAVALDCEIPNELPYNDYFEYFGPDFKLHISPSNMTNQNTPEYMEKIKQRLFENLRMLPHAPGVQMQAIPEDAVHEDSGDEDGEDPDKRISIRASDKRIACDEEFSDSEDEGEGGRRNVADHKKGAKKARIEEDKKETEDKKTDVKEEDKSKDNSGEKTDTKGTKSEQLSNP

N=C(N)c1ccc(N2CCCN(c3ccc(C(=N)N)cc3)C2=O)cc1 — remaining activity (PRMT5; enzyme activity, inhibitor, radiometric; 20 µM): 59.3%
COC(=O)[C@@]1(C)C=C(C(=O)Nc2cccc(C(=O)Nc3ccc(Nc4nccc(-c5cccnc5)n4)c(C)c3)c2)C(=O)CC1 — remaining activity (MAPK8; enzyme activity, inhibitor; 4.938 µM, 18 h, unit not given, together with: GSH 10 mM pre-incubation; baseline: vehicle): 0.0389
N=C(N)c1cnc(-c2ccc(-c3cnc(C(=N)N)cn3)o2)cn1 — remaining activity (PRMT5; enzyme activity, inhibitor, radiometric; 20 µM): 38.5%
N#Cc1cnc2sc(C(=O)O)cc2c1N1CCc2[nH]nc(C(=O)N[C@@H](CC(=O)NCCOCCN3CCOCC3)c3cccc(Br)c3)c2C1 — remaining activity (IL1RL2; SEAP reporter gene, antagonist; HEK-Blue IL-36R cells; 0.41 µM, 6 h, together with: IL-36β 0.003 ng/mL; baseline: untreated): 104%
COC(=O)c1cc2cc3c(cc2oc1=O)N(CC(=O)NC(Cc1ccc(C)cc1)C(=O)NCC=CS(=O)(=O)c1ccccc1)CCC3 (stereo not shown) — remaining activity (Cathepsin B (CTSB, Homo sapiens, UniProt P07858); inhibitor; 5 µM, 60 min, together with: Z-Arg-Arg-pNA; baseline: uninhibited control): 22%
COc1ccccc1-c1ccncc1C(=O)Nc1nnc(OCc2ccc(Cl)cc2)s1 — remaining activity (DNA polymerase theta, helicase domain (POLQ, Homo sapiens, UniProt O75417); ATPase activity, ADP-Glo; 0.004 µM, together with: ATP 400 µM): 93%
CC(C)[C@@H]1NC(=O)[C@H](Cc2ccccc2)NC(=O)CSC[C@@H](C(N)=O)NC(=O)[C@H](CCC(=O)O)NC(=O)[C@H](CO)NC(=O)[C@H](Cc2c[nH]c3cccc(Cl)c23)NC(=O)[C@H](C2CCCCC2)NC(=O)[C@H](C(C)C)NC(=O)[C@H](Cc2ccc(O)cc2)NC(=O)[C@H](CC(=O)O)NC(=O)[C@H](Cc2c[nH]c3ccccc23)NC(=O)[C@H](Cc2ccc(N)nc2)NC(=O)[C@H](Cc2c[nH]c3ccc(Cl)cc23)NC(=O)[C@H](CCC(=O)O)NC1=O — remaining activity (IL1RL2; reporter gene (SEAP), inhibitor, HEK-Blue IL-36R reporter; HEK-Blue IL-36R cells; 0.046 µM, 6 h, together with: IL-36β 0.1 ng/mL): 63.2%
C=C1C[C@@]2(C(=O)OC)C=C(C(=O)Nc3cccc(C(=O)Nc4ccc(Nc5nccc(-c6cccnc6)n5)c(C)c4)c3)C(=O)[C@@H]1C2 — remaining activity (MAPK8; kinase activity, inhibitor; 0.02032 µM, unit not given, together with: 10 mM glutathione; baseline: no inhibitor): 0.823
COC(=O)c1ccc2c(c1)nc(NC(=O)c1ccccc1)n2CCCc1ccccc1 — remaining activity (Histone deacetylase 2 (HDAC2, Homo sapiens, UniProt Q92769); enzyme activity, inhibitor; 10 µM): 85%
N=C(N)c1ccc(-c2ccc(-c3ccc(C(=N)N)cn3)o2)nc1 — remaining activity (PRMT5; enzyme activity, inhibitor, radiometric; 20 µM): 51%
COc1ccc(NC(=O)Nc2ccc3c(c2)C(=O)N(C(C)CO)CC(C)C(CN(C)Cc2ccc4c(c2)OCO4)O3)cc1 (stereo not shown) — remaining activity (Ribosomal protein S6 kinase alpha-1 (Rps6ka1, Rattus norvegicus, UniProt Q63531); kinase activity, KinaseProfiler; 0.03 µM, species rat; baseline: control): 104%
C=CC(=O)N1CCCC(n2c(=O)c3ncccc3n(Cc3ccc(Oc4ccccc4)cc3)c2=O)C1 (stereo not shown) — remaining activity (Tyrosine-protein kinase ABL1 (ABL1, Homo sapiens, UniProt P00519, M351T); kinase activity; 1 µM): 82%
N=C(N)c1ccc(-c2ccc(-c3cccc(C(=N)N)c3)o2)cc1 — remaining activity (PRMT5; enzyme activity, inhibitor, radiometric; 20 µM): 68.6%

A few entries again:
CC(C)[C@@H]1NC(=O)[C@H](Cc2ccccc2)NC(=O)CSC[C@@H](C(N)=O)NC(=O)[C@H](CCC(=O)O)NC(=O)[C@H](CO)NC(=O)[C@H](Cc2c[nH]c3cccc(Cl)c23)NC(=O)[C@H](C2CCCCC2)NC(=O)[C@H](C(C)C)NC(=O)[C@H](Cc2ccc(O)cc2)NC(=O)[C@H](CC(=O)O)NC(=O)[C@H](Cc2c[nH]c3ccccc23)NC(=O)[C@H](Cc2ccc(N)nc2)NC(=O)[C@H](Cc2c[nH]c3ccc(Cl)cc23)NC(=O)[C@H](CCC(=O)O)NC1=O — remaining activity (IL1RL2; reporter gene (SEAP), inhibitor, HEK-Blue IL-36R reporter; HEK-Blue IL-36R cells; 0.046 µM, 6 h, together with: IL-36β 0.1 ng/mL): 63.2%
